Results from different studies.
Numbered parts are unrelated; each lists some results of a single study. Changes are numbered by the printed parent chain.

Study 1
Molecule: PhoQ, residues 284 288 289 292 302 303 SVTLVV
Method: Sort-seq
Item: YFP reporter
Medium: E. coli
Setting: PhoQ-PhoP variant library
Together with: 10 µM Mg2+
Relative to: high Mg2+ state
Reading: higher = stronger signaling
target	fold induction
PhoP, residues 12 14 15 18 19 SHWTV (Escherichia coli, UniProt P23836)	1.28
PhoP, residues 12 14 15 18 19 STHWV (Escherichia coli, UniProt P23836)	0.619
PhoP, residues 12 14 15 18 19 QYCSL (Escherichia coli, UniProt P23836)	12.3

Study 2
Target: Interferon regulatory factor 3, full length, phosphomimetic (IRF3, Homo sapiens, UniProt Q14653, residues 1-427, S386D/S396D/S398D/S402D/T404D/S405D)
Method: protein-binding microarray
Molecule type: double-stranded DNA, one strand shown
Medium: in vitro
Concentration: 2540 nM top
Setting: 60-bp whole probe
Together with: salmon DNA 0.4 mg/ml
Relative to: random background probes
Reading: higher = stronger binding
All sequences stand within: GCCTAGCAC … GTCTTGATTCGCTTGACGCTGCTG
Target sequence (chain): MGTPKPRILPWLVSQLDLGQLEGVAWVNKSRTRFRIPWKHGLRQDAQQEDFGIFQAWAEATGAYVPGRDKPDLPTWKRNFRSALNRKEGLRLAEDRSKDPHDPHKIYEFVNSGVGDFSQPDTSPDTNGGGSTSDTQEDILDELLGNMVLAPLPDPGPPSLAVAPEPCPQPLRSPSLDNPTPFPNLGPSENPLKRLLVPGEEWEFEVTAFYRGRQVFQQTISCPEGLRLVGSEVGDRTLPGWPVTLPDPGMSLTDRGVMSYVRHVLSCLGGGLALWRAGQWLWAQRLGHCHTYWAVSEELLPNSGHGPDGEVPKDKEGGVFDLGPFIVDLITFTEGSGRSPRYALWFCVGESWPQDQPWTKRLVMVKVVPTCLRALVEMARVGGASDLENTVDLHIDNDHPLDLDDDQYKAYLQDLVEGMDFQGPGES
Oligonucleotide	fitted relative affinity [z-score]
GTCCTCCTCTCTCTTTCCACGTGCTAG	1.4
TCACGTCTGATTTTGCTACTGTGCTAG	-0.0354
TTGGATATCAGTCTCGATTAGTGCTAG	0.837
TCAGGTTTACCAGATCATCTGGTGCTA	0.623
GAGTGGTTCTGCTTCTTAGCGTGCTAG	0.574
TCATTTCTCTGTTCTAGACTGTGCTAG	3.11
GACGATCTCAGTCTCTAGACGTGCTAG	0.881
TCACACTCCAGTCTGGGACTGTGCTAG	0.769

Study 3
Target: Fragile X messenger ribonucleoprotein 1, C-terminal low-complexity region (Fmr1, Mus musculus, UniProt P35922)
Method: RNA Bind-n-Seq
Molecule type: RNA
Medium: in vitro
Concentration: 200 nM
Setting: whole 134-nt RNA, ends assumed
Together with: 150 mM KCl
Relative to: input library
Reading: higher = stronger binding
All sequences stand within: GGGAGUUCUACAGUCCGACGAUC … UGGAAUUCUCGGGUGUCAAGG
Oligonucleotide	log2 enrichment
UCAAGUCCUGUGCUACACAUCGUAUGUACCGAAUCGGUUUGGAAAAAAAGGAGGAAAGUAUUAUGUUACGCCGUUCGGAUCUGCACUUCC	-0.353
GCAGGAAGUAAAAACAACUGGAAAUGCUUCGGAUAGUGGCAGGGGUGGGGGUUGCUAAGGAAAGGGUGGGAUGGGAGUGGGUAAAGAGUU	0.351
ACCAUGCAGGUGGGCAUCUUUGGGAAGUGGGGCAAGGGGGGGAUAGGGAAAAGGGUAACACUUUGGGAACAGGUGGUCCCAGGUCGUUUC	0.687
UCAAGUCCUGUGCUACACAUCGUAUGUACCGAAUCGUGUGUGUGUGUGUGUGUGAAAGUAUUAUGUUACGCCGUUCGGAUCUGCACUUCC	0.182
CAAGUCCUGUGCUACACAUCGUAUGUACCGAAUCGGGGAAAGGGAAAGGGAAAGGGAAAGUAUUAUGUUACGCCGUUCGGAUCUGCACUU	0.567
CCUGUGCUACACAUCGUAUGUACCGAAUCGGGAAAAAGGGAAAAAAAGGGUUUUUUUGGGAAAGUAUUAUGUUACGCCGUUCGGAUCUGC	-0.815
UGGCUUCGAAGUACAGUCUUUGCAGGAUGCAGGAAAUCAGCUUGGUAUGGAGGAUACAUCUCUGAGCUCUGGAAUGCUCACCCAGAACAC	-0.463
CAAGCCAAGGAAAUGGUGUUAGAGUUAAUUCGUGAUCAAGGCGGUUUCAGAGAAGUUCGGAAUGAGUAUGGGUCAAGAAUAGGAGGAAAU	-1.07
UGGGAGGUGGAUUUUGUUUAUUUUUUUAGCUCAUUUCCAGGGGUGGGAAUUUUUUUUUAAUAUGUGUCAUGAAUAAAGUUGAUUUUGAAA	0.185

Study 4
Target: CCNB3, cyclin fold, Cln2 fusion (human)
Method: yeast growth competition, sequencing
Medium: yeast
Setting: weak parent motif
Relative to: not given
Reading: higher = stronger binding
Parent: CDKN1A docking peptide (human); SKACRRLFGPVDS; partner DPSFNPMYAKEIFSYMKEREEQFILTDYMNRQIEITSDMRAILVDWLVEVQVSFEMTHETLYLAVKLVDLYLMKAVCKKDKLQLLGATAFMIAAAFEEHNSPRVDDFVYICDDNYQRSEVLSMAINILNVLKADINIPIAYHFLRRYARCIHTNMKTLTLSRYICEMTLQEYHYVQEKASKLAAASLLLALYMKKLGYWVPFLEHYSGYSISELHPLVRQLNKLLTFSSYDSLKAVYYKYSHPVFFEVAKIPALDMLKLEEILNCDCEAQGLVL
Variant	normalised enrichment score
SKECRRLFGPVDS [A3E]	0.189
SKACRRYFGPVDS [L7Y]	0.287
SKACRRLGGPVDS [F8G]	0.127
SKACRRLFGPVWS [D12W]	0.305
SKACRRLFGPVFS [D12F]	0.636
SKACRRDFGPVDS [L7D]	0.16

A few entries again (study 4):
Variant	normalised enrichment score
SKACRRLFGPVWS [D12W]	0.305
